Published values of several laboratories.
Each line is one published result; not all experiments were run side by side.
Cell line: NCI-H460

The growth percent of `CN(C)CCN1CCN(c2ccc3nc(-c4ccc5nc(-c6ccc(C(F)(F)F)cc6)[nH]c5c4)[nH]c3c2)CC1` is reported as 10.6% (SRB; 10 µM, 48 h).
For `Cc1nc2c(F)cc(-c3nc(Nc4ccc(CNC(=O)CCCCCCC(=O)NO)cc4)ncc3F)cc2n1C(C)C`, the inhibition was 99.6% (cell growth or viability, CCK-8; 0.3 µM, 48 h).
The growth inhibition of `Cc1ccc(C(=O)/C=C/c2ccccc2)s1` is reported as under 0% (SRB; 10 µM).
`CCCC(CCC)C(=O)OCc1cn(-c2cc3ccccc3oc2=O)nn1` gave a growth percentage of 102% (NCI60 single-dose screen; 10 µM).
With `COc1ccccc1[C@H](Cn1c(=O)n(C(C)(C)C(N)=O)c(=O)c2c(C)c(-c3ncco3)sc21)OC1CCOCC1` the EC50 was 38 nM (cell proliferation, inhibitor; 168 h).
`CCCCCCCCCCCCCCCCCCOc1ccccc1CCOP(=O)([O-])OCC[N+](C)(C)C` has an inhibition of 37.9% (cell growth or viability, SRB; 10 µM).
With `C1=[N+]2CCCC[N+]3=Cc4ccc5[n]4[Au-]23[n]2c1ccc2-c1nc2ccccc2nc1-5.F[P-](F)(F)(F)(F)F` the TGI was 4 -log M (NCI60 five-dose screen).
For `O=C(O)c1ccc(-c2ccc(O)cc2)c2c1C=C(c1ccc(O)cc1)OC2(c1ccc(O)cc1)c1ccc(O)cc1`, the apoptotic cells was 48.4% (annexin V/PI flow cytometry; 30 µM, 24 h).
With `CCN(C(=O)c1cc(F)ccc1Oc1nncnc1N1CCC2(C1)CN([C@H](CCCN(C)CCOC)C(C)C)C2)C(C)C` the GI50 was over 10000 nM (cell growth or viability; 72 h).
`O=C(Nc1nnc2c1c(-c1ccc(Cl)cc1)nc1sc(=Cc3ccco3)c(=O)n12)c1ccccc1` (mixture of isomers) gave a cell growth of 15.8% (SRB; 10 µM, NCI60 single-dose screen; baseline: untreated).
`Cc1nc2c(F)cc(-c3nc(Nc4ccc(C(=O)NCCCCCC(=O)NO)cc4)ncc3F)cc2n1C(C)C` gave an inhibition of 99.1% (cell growth or viability, CCK-8; 0.3 µM, 48 h).

Excerpt of the above:
`O=C(Nc1nnc2c1c(-c1ccc(Cl)cc1)nc1sc(=Cc3ccco3)c(=O)n12)c1ccccc1` (mixture of isomers) gave a cell growth of 15.8% (SRB; 10 µM, NCI60 single-dose screen; baseline: untreated).
